{"data": "Assay results pooled from the literature", "VIM-2": "Metallo-beta-lactamase VIM-2 (VIM-2, Escherichia coli, UniProt Q5U7L7)", "note": "Compare with care: the assays were run in different laboratories. Values joined by “and” are separate records of one study, mostly repeats; a detail may differ. Numbers after ± are the reported error.", "sequence of UniProt D0VWV4 (whole entry, looked up)": "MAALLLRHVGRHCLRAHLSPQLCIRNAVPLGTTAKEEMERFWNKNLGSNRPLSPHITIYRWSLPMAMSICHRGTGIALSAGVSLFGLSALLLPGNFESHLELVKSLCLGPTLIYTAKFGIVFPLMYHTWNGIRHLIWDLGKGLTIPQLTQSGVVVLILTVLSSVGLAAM", "sequence of UniProt Q007T0 (whole entry, looked up)": "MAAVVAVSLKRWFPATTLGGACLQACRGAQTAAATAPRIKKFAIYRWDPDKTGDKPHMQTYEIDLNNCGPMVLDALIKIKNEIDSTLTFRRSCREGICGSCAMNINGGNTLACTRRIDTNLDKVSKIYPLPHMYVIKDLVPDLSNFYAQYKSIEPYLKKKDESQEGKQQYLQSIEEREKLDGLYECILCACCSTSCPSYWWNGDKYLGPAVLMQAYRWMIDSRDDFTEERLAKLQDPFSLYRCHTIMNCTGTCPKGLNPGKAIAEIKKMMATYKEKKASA", "sequence of UniProt A5GZW8 (whole entry, looked up)": "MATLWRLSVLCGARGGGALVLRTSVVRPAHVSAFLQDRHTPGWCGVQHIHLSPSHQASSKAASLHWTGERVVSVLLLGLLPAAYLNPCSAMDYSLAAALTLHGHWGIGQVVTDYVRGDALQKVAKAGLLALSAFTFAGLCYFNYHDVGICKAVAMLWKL", "sequence of UniProt P27361 (whole entry, looked up)": "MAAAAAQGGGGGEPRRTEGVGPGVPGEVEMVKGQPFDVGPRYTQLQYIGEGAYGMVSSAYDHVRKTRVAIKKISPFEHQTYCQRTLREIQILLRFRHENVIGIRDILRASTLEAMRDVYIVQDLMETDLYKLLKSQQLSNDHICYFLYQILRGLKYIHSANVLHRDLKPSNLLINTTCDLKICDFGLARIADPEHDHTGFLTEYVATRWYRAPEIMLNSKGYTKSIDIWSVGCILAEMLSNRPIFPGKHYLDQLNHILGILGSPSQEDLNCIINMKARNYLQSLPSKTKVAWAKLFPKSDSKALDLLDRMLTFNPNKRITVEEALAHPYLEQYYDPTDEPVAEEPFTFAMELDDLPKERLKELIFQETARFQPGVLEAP", "sequence of UniProt Q9ULK4 (whole entry, looked up)": "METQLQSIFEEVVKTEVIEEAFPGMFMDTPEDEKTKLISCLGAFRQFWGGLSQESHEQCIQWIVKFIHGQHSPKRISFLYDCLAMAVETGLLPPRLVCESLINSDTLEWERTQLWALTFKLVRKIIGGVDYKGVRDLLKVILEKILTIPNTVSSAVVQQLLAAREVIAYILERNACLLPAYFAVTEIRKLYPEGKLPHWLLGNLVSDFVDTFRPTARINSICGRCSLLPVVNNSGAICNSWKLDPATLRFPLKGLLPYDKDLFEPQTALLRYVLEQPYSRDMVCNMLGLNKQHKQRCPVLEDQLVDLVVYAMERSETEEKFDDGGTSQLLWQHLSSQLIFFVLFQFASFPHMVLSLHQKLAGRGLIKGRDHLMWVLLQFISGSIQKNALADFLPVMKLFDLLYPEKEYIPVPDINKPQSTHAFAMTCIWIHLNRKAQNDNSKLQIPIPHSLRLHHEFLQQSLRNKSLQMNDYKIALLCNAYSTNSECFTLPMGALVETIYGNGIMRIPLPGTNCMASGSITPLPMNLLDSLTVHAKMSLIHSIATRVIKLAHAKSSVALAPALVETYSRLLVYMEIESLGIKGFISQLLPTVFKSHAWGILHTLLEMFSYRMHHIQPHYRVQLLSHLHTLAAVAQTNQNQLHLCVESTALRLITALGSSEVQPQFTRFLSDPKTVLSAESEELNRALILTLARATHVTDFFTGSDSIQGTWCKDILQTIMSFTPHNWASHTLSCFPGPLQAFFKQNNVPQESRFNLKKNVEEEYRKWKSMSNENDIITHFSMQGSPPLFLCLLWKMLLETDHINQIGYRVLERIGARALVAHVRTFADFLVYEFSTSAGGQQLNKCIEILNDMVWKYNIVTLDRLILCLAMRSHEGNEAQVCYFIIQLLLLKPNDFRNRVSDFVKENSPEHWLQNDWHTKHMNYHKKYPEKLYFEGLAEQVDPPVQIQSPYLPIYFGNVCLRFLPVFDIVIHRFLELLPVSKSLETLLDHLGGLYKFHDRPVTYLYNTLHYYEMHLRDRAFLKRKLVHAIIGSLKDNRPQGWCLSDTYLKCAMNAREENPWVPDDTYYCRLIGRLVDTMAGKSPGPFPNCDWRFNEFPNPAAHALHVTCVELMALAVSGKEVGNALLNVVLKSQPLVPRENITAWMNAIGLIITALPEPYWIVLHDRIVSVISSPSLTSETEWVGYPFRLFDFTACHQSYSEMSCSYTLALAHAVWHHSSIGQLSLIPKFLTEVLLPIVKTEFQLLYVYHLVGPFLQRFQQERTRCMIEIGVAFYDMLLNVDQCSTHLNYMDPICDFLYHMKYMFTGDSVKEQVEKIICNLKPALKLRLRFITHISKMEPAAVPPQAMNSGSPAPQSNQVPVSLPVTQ", "sequence of UniProt P41595 (whole entry, looked up)": "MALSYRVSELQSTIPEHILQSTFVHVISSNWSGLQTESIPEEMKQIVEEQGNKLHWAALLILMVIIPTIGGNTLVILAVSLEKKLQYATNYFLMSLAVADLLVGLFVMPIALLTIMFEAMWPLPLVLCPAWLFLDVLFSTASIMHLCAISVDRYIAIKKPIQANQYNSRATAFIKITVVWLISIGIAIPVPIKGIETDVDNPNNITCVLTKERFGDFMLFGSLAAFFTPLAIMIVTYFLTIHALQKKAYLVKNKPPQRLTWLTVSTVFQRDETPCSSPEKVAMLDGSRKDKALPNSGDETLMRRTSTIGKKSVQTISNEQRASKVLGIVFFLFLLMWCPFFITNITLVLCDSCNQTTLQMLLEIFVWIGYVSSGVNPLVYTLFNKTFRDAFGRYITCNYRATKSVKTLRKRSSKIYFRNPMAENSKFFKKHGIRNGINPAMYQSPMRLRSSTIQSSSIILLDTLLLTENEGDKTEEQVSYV", "sequence of UniProt Q9BX84 (whole entry, looked up)": "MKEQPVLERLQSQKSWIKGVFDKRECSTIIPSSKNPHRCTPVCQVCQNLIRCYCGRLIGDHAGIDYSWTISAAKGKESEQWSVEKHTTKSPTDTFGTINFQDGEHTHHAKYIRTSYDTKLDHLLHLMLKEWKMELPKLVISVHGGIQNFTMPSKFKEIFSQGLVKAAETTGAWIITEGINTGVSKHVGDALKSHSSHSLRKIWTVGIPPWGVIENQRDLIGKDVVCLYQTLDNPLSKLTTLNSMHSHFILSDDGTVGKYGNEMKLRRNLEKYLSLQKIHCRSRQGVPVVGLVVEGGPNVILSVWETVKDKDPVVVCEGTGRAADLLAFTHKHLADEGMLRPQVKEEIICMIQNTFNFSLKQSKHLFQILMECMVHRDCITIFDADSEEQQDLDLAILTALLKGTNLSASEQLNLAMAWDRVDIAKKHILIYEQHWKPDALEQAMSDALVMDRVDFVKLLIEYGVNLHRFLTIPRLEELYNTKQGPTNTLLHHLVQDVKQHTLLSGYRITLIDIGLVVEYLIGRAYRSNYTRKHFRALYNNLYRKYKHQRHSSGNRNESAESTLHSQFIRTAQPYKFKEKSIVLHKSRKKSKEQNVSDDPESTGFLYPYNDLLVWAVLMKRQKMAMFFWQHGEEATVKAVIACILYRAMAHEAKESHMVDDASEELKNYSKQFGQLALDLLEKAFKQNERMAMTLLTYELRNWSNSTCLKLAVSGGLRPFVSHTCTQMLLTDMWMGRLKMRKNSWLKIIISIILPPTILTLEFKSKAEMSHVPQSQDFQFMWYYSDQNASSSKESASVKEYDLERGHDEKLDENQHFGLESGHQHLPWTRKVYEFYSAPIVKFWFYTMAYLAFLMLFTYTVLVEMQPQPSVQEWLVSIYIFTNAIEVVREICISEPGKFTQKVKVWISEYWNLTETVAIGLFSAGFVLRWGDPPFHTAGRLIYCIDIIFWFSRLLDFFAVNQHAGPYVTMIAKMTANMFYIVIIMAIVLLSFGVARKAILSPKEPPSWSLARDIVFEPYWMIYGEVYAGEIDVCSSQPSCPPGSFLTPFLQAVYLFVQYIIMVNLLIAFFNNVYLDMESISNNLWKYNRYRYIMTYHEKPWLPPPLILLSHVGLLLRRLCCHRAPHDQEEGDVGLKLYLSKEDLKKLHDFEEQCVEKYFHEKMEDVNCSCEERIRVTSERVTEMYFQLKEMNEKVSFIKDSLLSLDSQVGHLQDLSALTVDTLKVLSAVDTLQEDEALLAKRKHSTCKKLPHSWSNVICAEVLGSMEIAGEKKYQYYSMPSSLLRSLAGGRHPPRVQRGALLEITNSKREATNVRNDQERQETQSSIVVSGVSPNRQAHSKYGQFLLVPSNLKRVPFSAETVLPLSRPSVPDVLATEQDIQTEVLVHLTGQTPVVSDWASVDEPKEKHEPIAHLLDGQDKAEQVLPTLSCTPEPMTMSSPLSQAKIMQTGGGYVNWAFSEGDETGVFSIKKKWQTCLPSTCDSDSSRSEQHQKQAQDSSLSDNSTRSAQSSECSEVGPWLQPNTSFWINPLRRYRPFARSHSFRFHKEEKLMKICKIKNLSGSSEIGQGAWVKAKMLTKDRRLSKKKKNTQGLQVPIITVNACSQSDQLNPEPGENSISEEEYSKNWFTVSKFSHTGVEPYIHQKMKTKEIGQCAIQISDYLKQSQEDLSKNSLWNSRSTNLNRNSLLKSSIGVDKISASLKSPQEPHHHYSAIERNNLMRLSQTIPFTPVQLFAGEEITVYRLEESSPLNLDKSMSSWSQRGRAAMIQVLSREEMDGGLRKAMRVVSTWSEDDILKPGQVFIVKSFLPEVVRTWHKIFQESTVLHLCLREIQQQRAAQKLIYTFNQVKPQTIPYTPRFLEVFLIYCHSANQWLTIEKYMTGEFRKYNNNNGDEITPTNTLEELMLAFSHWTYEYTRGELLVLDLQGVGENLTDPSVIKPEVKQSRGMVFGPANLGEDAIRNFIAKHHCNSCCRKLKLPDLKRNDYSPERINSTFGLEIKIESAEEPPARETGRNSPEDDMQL"}
{"SMILES": "CC(=O)P(=O)(O)OCCc1cn([C@H](Cc2ccccc2)C(=O)O)nn1", "target": "1-deoxy-D-xylulose-5-phosphate synthase (dxs, Escherichia coli, UniProt P77488)", "assay": "time-dependent inhibition", "conditions": "23 °C, with: 250 µM D-GAP, 100 µM pyruvate", "measurement": "k2 reverse isomerisation rate", "value": "0.14 min⁻¹"}
{"SMILES": "CC[C@H](CO)Nc1nc(NCc2ccc(-c3ccccn3)cc2)c2ncn(C(C)C)c2n1", "target": "Dual specificity tyrosine-phosphorylation-regulated kinase 1A (DYRK1A, Homo sapiens, UniProt Q13627)", "assay": "KINOMEscan competition binding", "conditions": "10 µM, primary screen", "scale": "direction not given", "measurement": "binding score", "value": 0.5}
{"SMILES": "CC[N+]1(CC)CCN(c2cccc(OC)c2)CC1", "target": "Nicotinic acetylcholine receptor alpha1/beta1/epsilon/delta (Mus musculus, UniProt P02716+P04756+P09690+P20782)", "assay": "ion current, inhibitor, two-electrode voltage clamp", "system": "Xenopus oocytes", "conditions": "30 µM, after co-application, unit not given, with: ACh 30 µM", "scale": "relative to: ACh alone", "measurement": "ACh response", "value": "0.4 ± 0.158"}
{"SMILES": "[2H]c1c([2H])c([C@]2([2H])CCCN2C(=O)C(C)(C)Oc2ccc3cn[nH]c3c2)c([2H])c([2H])c1C([2H])([2H])[2H]", "target": "Transient receptor potential cation channel subfamily M member 6 (TRPM6, Homo sapiens, UniProt Q9BX84)", "assay": "KINOMEscan", "conditions": "1 µM", "scale": "relative to: DMSO control", "measurement": "remaining binding", "value": "100%"}
{"SMILES": "COC(=O)[C@@]1(O)C[C@H]2O[C@]1(C)n1c3ccccc3c3c4c(c5c6ccccc6n2c5c31)C(=O)NC4", "target": "Mitogen-activated protein kinase 3 (MAPK3, Homo sapiens, UniProt P27361)", "assay": "ADP-Glo", "conditions": "12.1 µM, with: substrate MBP", "measurement": "remaining activity", "value": "106%"}
{"SMILES": "CC(C)(O/N=C(\\C(=O)N[C@@H]1C(=O)N2C(C(=O)[O-])=C(C[N+]3(CCNC(=O)c4ccc(O)c(O)c4Cl)CCCC3)CS[C@H]12)c1csc(N)n1)C(=O)O", "target": "VIM-2", "assay": "substrate, stopped-flow fluorescence", "conditions": "pH 7.5, 10 °C", "scale": "relative to: NDM-1", "measurement": "Trp fluorescence recovery time", "value": "10 fold"}
{"SMILES": "O=C(c1ccc(Cl)cc1)N1CCN2C(=O)N(OC(=O)N3CCOc4ccccc43)C(=O)C2C1 (stereo not shown)", "target": "Liver carboxylesterase 1 (CES1, Homo sapiens, UniProt P23141)", "assay": "enzyme activity, inhibitor, MS-based ABPP", "system": "SW-620 in situ", "conditions": "10 µM, 2 h, 37 °C", "scale": "relative to: compound over DMSO, lower = stronger inhibition", "measurement": "median ratio", "value": 1.02}
{"SMILES": "O=C(O)c1cccc(C(O)P(=O)(O)O)n1 (stereo not shown)", "target": "VIM-2", "assay": "inhibitor", "conditions": "with: nitrocefin", "measurement": "dissociation half-life", "value": "6.1 ± 0.2 min"}
{"SMILES": "CN1CCN(c2cc(-c3ccncc3)c(-c3ccc4ccccc4c3)nn2)CC1", "target": "5-hydroxytryptamine receptor 2B (HTR2B, Homo sapiens, UniProt P41595)", "assay": "agonist, FLIPR", "conditions": "12.5 µM", "measurement": "activation", "value": "0%"}
{"SMILES": "COc1ccc(N2C(=O)N(c3c(C)cccc3Cl)Cc3cnc(Nc4ccc(C5CCN(C)CC5)cc4OC)nc32)nc1", "target": "Phosphatidylinositol 4,5-bisphosphate 3-kinase catalytic subunit gamma isoform (PIK3CG, Homo sapiens, UniProt P48736)", "assay": "kinase activity", "conditions": "0.5 µM", "measurement": "inhibition", "value": "-21%"}
{"SMILES": "C[C@H]1CN(c2n[nH]c3nc(N[C@H]4CC[C@H](NS(=O)(=O)CCC(F)(F)F)CC4)ncc23)CCO1", "target": "Mediator of RNA polymerase II transcription subunit 23 (MED23, Homo sapiens, UniProt Q9ULK4)", "assay": "inhibitor, Kinobeads competition profiling", "conditions": "0.16 µM", "scale": "relative to: vehicle", "measurement": "relative abundance", "value": 1.05}
{"SMILES": "CC1=Cc2ccccc2C12CCN(C1Cc3ccccc3CC1O)CC2 (racemic)", "target": "Sigma non-opioid intracellular receptor 1 (SIGMAR1, Homo sapiens, UniProt Q99720)", "system": "rat liver (sigma2), human sigma1", "scale": "relative to: Ki sigma2 over Ki sigma1", "measurement": "selectivity ratio", "value": 4.7}
{"SMILES": "C=C(CN(C(=O)c1c(C(F)F)nn(C)c1F)C1CC1)c1ccc(Cl)cc1Cl", "target": "SDHD/SDHC/SDHB (Sus scrofa, UniProt A5GZW8+D0VWV4+Q007T0)", "assay": "enzyme activity, inhibitor, DCIP reduction", "system": "pig", "conditions": "0.4 µM, with: DCIP 5 µM", "measurement": "reaction velocity", "value": "0.000918 µM/s and 0.000956 µM/s and 0.00126 µM/s"}
{"SMILES": "Nc1ncc(-c2nc(N3CCOCC3)nc(N3CCOCC3)n2)c(C(F)F)n1", "target": "Cyclin-G-associated kinase (GAK, Homo sapiens, UniProt O14976)", "assay": "KINOMEscan", "conditions": "10 µM", "measurement": "remaining binding", "value": "75%"}
{"SMILES": "CN(C(=O)n1cnc(-c2ccc[n+]([O-])c2)c1)C1CCCCC1", "target": "Calcium/calmodulin-dependent protein kinase type II subunit delta (CAMK2D, Homo sapiens, UniProt Q13557)", "assay": "enzyme activity", "conditions": "50 µM, with: autocamtide-2", "measurement": "inhibition", "value": "10%"}
{"SMILES": "CCCCCCCCC(=O)O", "target": "Albumin (ALB, Homo sapiens, UniProt P02768)", "assay": "ITC", "conditions": "25 °C, first binding site, with: HSA 20 µM", "measurement": "association constant", "value": "1.3e+06 M⁻¹"}
{"note": "Excerpt of the above:"}
{"SMILES": "CCCCCCCCC(=O)O", "target": "Albumin (ALB, Homo sapiens, UniProt P02768)", "assay": "ITC", "conditions": "25 °C, first binding site, with: HSA 20 µM", "measurement": "association constant", "value": "1.3e+06 M⁻¹"}
{"SMILES": "C=C(CN(C(=O)c1c(C(F)F)nn(C)c1F)C1CC1)c1ccc(Cl)cc1Cl", "target": "SDHD/SDHC/SDHB (Sus scrofa, UniProt A5GZW8+D0VWV4+Q007T0)", "assay": "enzyme activity, inhibitor, DCIP reduction", "system": "pig", "conditions": "0.4 µM, with: DCIP 5 µM", "measurement": "reaction velocity", "value": "0.000918 µM/s and 0.000956 µM/s and 0.00126 µM/s"}
{"SMILES": "CC1=Cc2ccccc2C12CCN(C1Cc3ccccc3CC1O)CC2 (racemic)", "target": "Sigma non-opioid intracellular receptor 1 (SIGMAR1, Homo sapiens, UniProt Q99720)", "system": "rat liver (sigma2), human sigma1", "scale": "relative to: Ki sigma2 over Ki sigma1", "measurement": "selectivity ratio", "value": 4.7}
